Published values collected from several papers.
A part holds a random share of what one study measured.

Block 1
Target: Replicase polyprotein 1ab, main protease (rep, Severe acute respiratory syndrome coronavirus 2, UniProt P0DTD1)
Effect on: enzyme activity
Action: inhibitor
Tested at: 20 µM
The inhibition of `CCCCCCCCCCCCCCCC[n+]1ccn(Cc2ccccc2)c1C` is reported as 36.3%.
For `Oc1cc(CNC(=S)/C=C/c2cc(O)c(O)c(Br)c2)cc(O)c1O`, the inhibition was -4.64%.
`COc1ccc2c(c1)nc([S+]([O-])Cc1ncc(C)c(OC)c1C)[n]2[Mg][n]1c([S+]([O-])Cc2ncc(C)c(OC)c2C)nc2cc(OC)ccc21` (stereo not drawn) gave an inhibition of -6.78%.
The inhibition of `O=C(O)c1ccc(N2C(=O)/C(=C/c3ccc(-c4ccc([N+](=O)[O-])cc4)o3)C=C2c2ccccc2)cc1` is reported as 21.6%.

Block 2
Cell line: HEK-293T
Effect on: pseudovirus infection
Organism: VSV pseudotyped with SARS-CoV-2 spike
Tested at: 10 µM
Time: 16 h
Reference: vehicle-treated
With `CO[C@H]1/C=C/O[C@@]2(C)Oc3c(C)c(O)c4c(c3C2=O)C2=NC3(CCN(CC(C)C)CC3)NC2=C(NC(=O)/C(C)=C\C=C\[C@H](C)[C@H](O)[C@@H](C)[C@@H](O)[C@@H](C)[C@H](OC(C)=O)[C@@H]1C)C4=O` the GFP-positive cells was 134%.
For `C[C@@H](O[C@H]1OCCN(Cc2n[nH]c(=O)[nH]2)[C@H]1c1ccc(F)cc1)c1cc(C(F)(F)F)cc(C(F)(F)F)c1`, the GFP-positive cells was 76.6%.
The GFP-positive cells of `CCCN(CCC)CCc1cccc2c1CC(=O)N2` is reported as 74.8%.
The GFP-positive cells of `C[N+](C)(C)CC(=O)O` is reported as 89.1%.

Block 3
Target: RNA binding protein fox-1 homolog 2, RRM domain, GST-SBP tag (RBFOX2, Homo sapiens, UniProt O43251-10, residues 100-194)
Method: RNA Bind-n-Seq
Molecule type: RNA
Medium: in vitro
Tested at: 365 nM
Notes: natural RNA segment, single round, ends assumed
Reference: no-protein control
Reading: higher = stronger binding
Construct (chain): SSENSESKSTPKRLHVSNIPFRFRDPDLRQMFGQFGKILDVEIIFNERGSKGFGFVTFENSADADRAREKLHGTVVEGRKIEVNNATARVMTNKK
`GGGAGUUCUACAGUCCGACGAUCCGCGCCACUUUGCAUUCCCACGGGACUCAUGUACCUCCCGCAGAGCCGUCCCCGUCAAGGUGUGGGGCUCCUUUCAUGCAUUUGCUUCUUUUCCAGAGUGUGGAUUUGAAUGGAAUUCUCGGGUGCCAA`: “RBNS enrichment (R)” 0.977.
`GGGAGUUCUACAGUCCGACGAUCCCUGCGUCAAGCAGUGGGAGAGGGCAGUGCCCGGUGCCCUGGUGCUCCCAGCUGCCCUCCUGCUUCGGGCCUGGGCCGAGGGCCUUGUGUAGGCCAUGUUCCUCGGGCAGUGGAAUUCUCGGGUGCCAA`: “RBNS enrichment (R)” 0.357.
`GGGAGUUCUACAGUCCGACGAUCGGGAGAUGGAUUAAUGUGAGUAACAGGAAUGUGUCUUUAAAAAGCUAGAGUGGUUACAUUUAAUCAGGCAGUAAGAUAAUUUGGGUUCUUGAGUUGUUUUGGAGUAAUAUUGGAAUUCUCGGGUGCCAA` — result for “RBNS enrichment (R)”: 1.77.
For `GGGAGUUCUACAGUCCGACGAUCUGAGGACUUACCUCCUGAAGAUAUGCUUGUUGCUUUAUGAUAUAUGUAAACUAUUCUUUAGAAAAAUGCAUUCACUCUUUAAUAAAAGUAUGUUUGUGUUAAUAAAGCCAUGGAAUUCUCGGGUGCCAA`, “RBNS enrichment (R)” read 0.837.
`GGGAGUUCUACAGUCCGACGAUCCAAGCGAGCACAGCUCCGUGCCAAAGCUAACUAAUUUGCUAAUCACCAUUGAUUUUUCCAAAAUGUGUUGGAGAUUUGGCUGGACAGGUUACCAUCAGAGUGGAUGUACCUGGAAUUCUCGGGUGCCAA` — result for “RBNS enrichment (R)”: 0.259.
Under “RBNS enrichment (R)”, `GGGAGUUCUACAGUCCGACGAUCUACUGAUCCAAACACAAGACGGUCAGAGGAGCCCUGGCAUCCUUCACUCUUAUAGGCCUACAUGCAGAUGGGCUUGAAGAGAAUUGGCCUUUCAUUUUUCACGCUCGUAUUGGAAUUCUCGGGUGCCAA` is recorded as 1.18.
For `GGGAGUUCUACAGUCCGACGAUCCAGAAGCAGGGCUCCACCCAGGCCUUCCCUUGGAGUCGGUGCAUCCAUGGGCUGCUAGACUCUUGCGGGUAGAGUCUCCCCUGGACUUAGCAUUGUGAGAUGGACUCAGCUGGAAUUCUCGGGUGCCAA`, “RBNS enrichment (R)” read 0.582.
For `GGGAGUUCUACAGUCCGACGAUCUAGAAGCAGACGAUCUCGGGCUCCAAGUAUUUCAGAAUGAUUUAAAAAGUCAUGCCACAGGAAGGGUCUAUUGCAGAAUUUCAAGUUCUGUUUAUAGUAAAAAGGAAGAGUGGAAUUCUCGGGUGCCAA`, “RBNS enrichment (R)” read 0.362.

Block 4
Target: Sal-like protein 4, full length isoform B (SALL4, Homo sapiens, UniProt Q9UJQ4-2, residues 1-616)
Method: universal PBM
Molecule type: double-stranded DNA, one strand shown
Medium: in vitro
Tested at: not given
Notes: 8-mer, flanks averaged, mean of replicates
Reading: higher = stronger binding
`GAGATCGA` has an E-score of -0.0513.
The E-score of `TAGGCATA` is reported as 0.146.
For `GAACTCCC`, the E-score was -0.103.
`CAATAATC` gave an E-score of 0.291.
For `ACACCCAG`, the E-score was -0.301.
`ATCATACG` has an E-score of 0.253.
`CCGGTGCG` gave an E-score of -0.362.
For `CACAGTGC`, the E-score was -0.317.

Block 5
Target: Replicase polyprotein 1ab, polymerase (rep, Severe acute respiratory syndrome coronavirus 2, UniProt P0DTD1)
Effect on: enzyme activity
Action: inhibitor
Tested at: 20 µM
`CCN(C(=O)c1c(O)c2c(Cl)cccc2n(C)c1=O)c1ccccc1` has an inhibition of 0.27%.
The inhibition of `NC(=O)c1ccc(-c2nc(-c3ccccn3)c(-c3ccc4c(c3)OCO4)[nH]2)cc1` is reported as 4.04%.
With `O=C(O)c1ccccn1` the inhibition was 0.02%.
`CCCC(CCC)C(=O)Nc1ccn([C@@H]2O[C@H](CO)[C@@H](O)C2(F)F)c(=O)n1` gave an inhibition of 0.64%.
For `CCCCCNC(=N)N/N=C/c1c[nH]c2ccc(OC)cc12`, the inhibition was -1.81%.
For `CN1c2ccccc2C(NCCCCCCC(=O)O)c2ccc(Cl)cc2S1(=O)=O` (stereo not drawn), the inhibition was 0.57%.
`Cc1ccc(S(=O)(=O)NCl)cc1` has an inhibition of -0.1%.
`Nc1nc(NC2CC2)cc(-c2cccc(Cl)c2Cl)n1` has an inhibition of 8.02%.
For `CS(=O)(=O)Nc1ccc2oc3c(OC(F)F)ccc(C(=O)Nc4c(Cl)cncc4Cl)c3c2c1`, the inhibition was 6.68%.
`CC(=O)NCCCOc1ccc(C(=O)N2CCC(N3C(=O)CCc4ccccc43)CC2)cc1` gave an inhibition of -0.94%.
For `C[C@@H]([C@H](C)O)[C@H](N)C(=O)O`, the inhibition was -1.8%.
`COc1ccc2cc1Oc1ccc(cc1)C[C@H]1c3cc(c(OC)cc3CCN1C)Oc1c(OC)c(OC)cc3c1[C@H](C2)N(C)CC3` has an inhibition of -0.64%.
The inhibition of `Cc1c(N)c(=O)n(-c2ccccc2)n1C` is reported as -9.81%.
With `c1cc(CN2CCCCC2)cc(OCCCNc2nc3ccccc3s2)c1` the inhibition was -0.43%.
The inhibition of `O=C(Nc1ccccc1)N[C@@H]1C[C@@H](C(=O)O)Nc2cc(Cl)cc(Cl)c21` is reported as 3.91%.
The inhibition of `COc1ccc2c3c1O[C@H]1C[C@@H](O)C=C[C@@]31CCN(C)C2` is reported as 18.3%.
The inhibition of `CN(NC(=O)CC(=O)NN(C)C(=S)c1ccccc1)C(=S)c1ccccc1` is reported as -1.38%.
`CC(=O)CC(c1ccccc1)c1c(O)c2ccccc2oc1=O` (stereo not drawn) has an inhibition of 1.53%.
`C=C(C)[C@@H]1CC[C@]2(CO)CC[C@]3(C)[C@H](CC[C@@H]4[C@@]5(C)CC[C@H](O)C(C)(C)[C@@H]5CC[C@]43C)[C@@H]12` has an inhibition of -2.73%.
`Cc1cccc(Cc2c[nH]cn2)c1C` has an inhibition of -2.28%.
`COc1ccc(-c2cc(C(F)F)nn2-c2ccc(S(N)(=O)=O)cc2)cc1F` gave an inhibition of -5.44%.
With `O=C(Nc1cc2cc[nH]c2cn1)c1ccccc1` the inhibition was 2.27%.
With `CC(C)[N+](C)(CCC(C(N)=O)(c1ccccc1)c1ccccc1)C(C)C` the inhibition was 20.8%.
For `COc1cc(Nc2ncc(F)c(Nc3ccc4c(n3)NC(=O)C(C)(C)O4)n2)cc(OC)c1OC`, the inhibition was -1.8%.
With `CCCCOc1c(C(=O)c2c(F)cc(C)cc2F)c[nH]c2nncc1-2` the inhibition was -5.53%.

Block 6
Target: Interferon regulatory factor 5, full length, phosphomimetic (IRF5, Homo sapiens, UniProt Q13568-2, residues 1-514, K96S/S451D/S453D/S456D/S462D)
Method: protein-binding microarray
Molecule type: double-stranded DNA, one strand shown
Medium: in vitro
Tested at: 250 nM
Notes: 60-bp whole probe
Added: salmon DNA 0.4 mg/ml
Reference: random background probes
Reading: higher = stronger binding
All sequences stand within: GCCTAGCAC … GTCTTGATTCGCTTGACGCTGCTG
The log fluorescence of `TTAGCTTTCGGTCTCGGTTAGTGCTAG` is reported as 10.7 z-score.
`GACGATTTCAGTATCGAGAGGTGCTAG` has a log fluorescence of 3.52 z-score.
The log fluorescence of `TTAGATTTCAGTTTCGATTCGTGCTAG` is reported as 10.1 z-score.
The log fluorescence of `GACGATATCGTGACTGGAGACGTGCTA` is reported as 0.292 z-score.
`TTAGGTTTCGGACTAGGTTAGTGCTAG` gave a log fluorescence of 6.03 z-score.
With `TCATGTTTAAGAATGTTACTGTGCTAG` the log fluorescence was 0.226 z-score.
`TTAGATCTCAGTATCGATTCGTGCTAG` has a log fluorescence of 5.89 z-score.
`GACGATTTCGGAACTGGAGACGTGCTA` gave a log fluorescence of 1.91 z-score.
